{"data": "Measurements of several laboratories", "note": "Each line is one published result; not all experiments were run side by side. Numbers after ± are the reported error."}
{"Compound": "N=C(N)NCc1ccc(C(=O)NCCCC[C@H](NC(=O)CCCCCCC(=O)NCCCC[C@H](NC(=O)N[C@@H](CCC(=O)O)C(=O)O)C(=O)O)C(=O)O)cc1[211At]", "test system": "SCID mouse, PC-3 xenografts, blood", "setting": "21 h", "tissue uptake": "0.48 ± 0.13 %ID/g"}
{"Compound": "O=C(c1ccc(F)cc1)C1CCN(C2Cc3c(cccc3OCC[18F])CC2O)CC1 (single isomer, unassigned; (-))", "test system": "Sprague-Dawley rat, male, heart", "setting": "intravenous, dose not given, 120 min", "tissue uptake": "0.336 ± 0.016 %ID/g"}
{"Compound": "CCNc1cc2[o+]c3cc(NCC)c(C)cc3c(-c3ccccc3C(=O)OCCOCC[18F])c2cc1C", "test system": "rat, lung", "setting": "30 min", "tissue uptake": "0.58 ± 0.14 %ID/g"}
{"Compound": "CN[C@](C)(C[18F])C(=O)O", "test system": "SCID mouse SK-OV-3 xenograft, heart", "setting": "15 min post injection", "tissue uptake": "2.7 ± 0.4 %ID/g"}
{"Compound": "CC(C)C[C@@H](NC(=O)[C@@H](CCCNC(=N)N)NC(=O)[C@@H](Cc1c[nH]cn1)NC(=O)[C@@H](Cc1c[nH]c2ccccc12)NC(=O)[C@@H](Cc1c[nH]cn1)NC(=O)[C@@H](Cc1ccccc1)NC(=O)[C@H](NC(=O)[C@@H](Cc1ccc(O)cc1)NC(=O)CNC(=O)CNC(=O)CCOCCOCCOCCNC(=O)CN1CCN(CC(=O)O)CCN(CC(=O)O)CC1)[C@H](C)O)C(=O)N[C@H](CC(N)=O)C(=O)N1CCC[C@@H]1C(=O)O [gallium-68 labelled]", "test": "γ-counting", "test system": "male C57BL/6 mice, spleen", "setting": "intravenous, 1.85 MBq, 60 min", "tissue uptake": "1.99 ± 0.48 %ID/g"}
{"Compound": "N=C(N)NCc1ccc(C(=O)NCCCC[C@H](NC(=O)N[C@@H](CCC(=O)O)C(=O)O)C(=O)O)cc1[131I]", "test system": "SCID mouse, PC-3 xenografts, lungs", "setting": "14 h", "tissue uptake": "0.09 ± 0.03 %ID/g"}
{"Compound": "CCCC[C@H](NC(=O)CN1CCC(NC(=O)CN2CCC(NC(=O)CN3CCN(CC(=O)O)CCN(CC(=O)O)CCN(CC(=O)O)CC3)CC2)CC1)C(=O)N[C@H]1CC(=O)NCCCC[C@@H](C(N)=O)NC(=O)[C@H](Cc2c[nH]c3ccccc23)NC(=O)[C@H](CCCNC(=N)N)NC(=O)[C@@H](Cc2ccccc2)NC(=O)[C@H](Cc2c[nH]cn2)NC1=O [gallium-68 labelled]", "test system": "C57BL/6J mice male B16-F10 tumour, liver", "setting": "1 h post injection, unblocked", "tissue uptake": "0.5 ± 0.1 %ID/g"}
{"Compound": "COc1cc2ccnc(Cc3ccc(O[11CH3])c(OC)c3)c2cc1OC", "test system": "Sprague-Dawley rats, heart", "setting": "intravenous, 0.08333 h", "tissue uptake": "0.325 ± 0.077 %ID/g"}
{"Compound": "COc1ccc(C)cc1NC(=O)OC1CC2CCCC(C1)N2Cc1ccc(CC[18F])cc1 (stereo not drawn)", "test system": "BALB/c mice, EMT6 tumour, liver", "setting": "2 h", "tissue uptake": "17.1 ± 1.57 %ID/g"}
{"note": "For quick reference, copied from above:"}
{"Compound": "N=C(N)NCc1ccc(C(=O)NCCCC[C@H](NC(=O)N[C@@H](CCC(=O)O)C(=O)O)C(=O)O)cc1[131I]", "test system": "SCID mouse, PC-3 xenografts, lungs", "setting": "14 h", "tissue uptake": "0.09 ± 0.03 %ID/g"}
